# Experimental data collected from several papers.
# Parts stem from different laboratories: compare values within a part only. Positions count from the first letter of the parent shown.

# Set 1
# Target: Ras GTPase-activating protein-binding protein 1, RRM domain (G3BP1, Homo sapiens, UniProt Q13283)
# Chain of UniProt Q13283 (whole entry, looked up): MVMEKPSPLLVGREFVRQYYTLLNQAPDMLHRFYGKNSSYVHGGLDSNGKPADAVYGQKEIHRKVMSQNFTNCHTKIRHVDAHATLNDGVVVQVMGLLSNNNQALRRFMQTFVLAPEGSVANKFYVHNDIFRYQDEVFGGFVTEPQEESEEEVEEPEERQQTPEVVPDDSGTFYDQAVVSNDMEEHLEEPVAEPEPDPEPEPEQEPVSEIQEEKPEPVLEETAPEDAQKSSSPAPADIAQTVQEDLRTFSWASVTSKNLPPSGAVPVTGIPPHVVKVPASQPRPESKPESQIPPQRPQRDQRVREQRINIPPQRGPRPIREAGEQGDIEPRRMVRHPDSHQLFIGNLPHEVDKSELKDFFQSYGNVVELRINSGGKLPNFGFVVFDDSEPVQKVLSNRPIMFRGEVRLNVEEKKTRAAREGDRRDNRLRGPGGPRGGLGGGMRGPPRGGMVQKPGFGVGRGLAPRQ
# Method: RNA Bind-n-Seq
# Molecule type: RNA
# Sample: in vitro
# Concentration: 1 µM
# Notes: whole 134-nt RNA, ends assumed
# Added: 150 mM KCl
# Relative to: input library
# Reading: higher = stronger binding
# Constant ends, left off below: GGGAGUUCUACAGUCCGACGAUC … UGGAAUUCUCGGGUGUCAAGG
Sequence,log2 enrichment
GUCCUGUGCUACACAUCGUAUGUACCGAAUCGGGGAAAAAGGGGAGGGGAAAAAGGGGAAAGUAUUAUGUUACGCCGUUCGGAUCUGCAC,0.736
UGACUUUAGAGGAGGAUCUGAUGGAUAUGGCAGUGGACGUGGAUUUGGGGAUGGCUAUAAUGGGUAUGGAGGAGGACCUGGAGGUGGCAA,-0.799
UCAAGUCCUGUGCUACACAUCGUAUGUACCGAAUCGGUUUGGUUUGGUUUUUGGAAAGUAUUAUGUUACGCCGUUCGGAUCUGCACUUCC,-0.245
UCAAGUCCUGUGCUACACAUCGUAUGUACCGAAUCGGAAAAAAAGGUGGAAAGGAAAGUAUUAUGUUACGCCGUUCGGAUCUGCACUUCC,-0.137
AAGUCCUGUGCUACACAUCGUAUGUACCGAAUCGGGAAAGGGUGGGUUUUUUUGGGAAAGUAUUAUGUUACGCCGUUCGGAUCUGCACUU,0.711
CACAGACAACACGCACCCACACAGAGACAGAGGGAAGGGGUUGGGAUGGGGACAGGGUGCACAGCAGGGCGGGGUAGGACCCCAGCCCCU,0.0738
GCAGGAAGUAAAAACAAAUGGAAAUGCUUCAAAUAGUGGCAGGGGUGGGGGUUGCUAAGGAAAGGGUGGGAUGGGAGUGGGUAAAGAGUU,1.25
GUCCUGUGCUACACAUCGUAUGUACCGAAUCAAACCCAAAUUUUUUUAAAUUUUUAAAAAAGUAUUAUGUUACGCCGUUCGGAUCUGCAC,-0.857
CCUCAAGUCCUGUGCUACACAUCGUAUGUACCGAAUCGGUUGGUUGGGUUGGGAAAGUAUUAUGUUACGCCGUUCGGAUCUGCACUUCCA,-0.192
GAAAUUUGGUUAUGUGGAUUUUGAAUCUGCUGAAGACCUGGAGAAAGCGUUGGAACUCACUGGUUUGAAAGUCUUUGGCAAUGAAAUUAA,-0.487
AAGUCCUGUGCUACACAUCGUAUGUACCGAAUCGGUUUUUUUGGUUUUUGGUUUGGAAAGUAUUAUGUUACGCCGUUCGGAUCUGCACUU,-0.156
ACCAUGCAGGUGGGCAUCUUUGGGAAGUGGGGCAAGGGGGGGAUAGGGAGGGGGGUAACACUUUGGGAACAGGUGGUCCCAGAUCGUUUC,0.744
CACAGACAACACGCACCCACACAGACACAGAGGGAAGGGGUUGGGAUGGGGACAUGGUGCACAGCAGGGCGGGGUAGGACCCCAGCCCCU,0.101
UCCUUUGUGUUUACAAAAGCACUGACCCUUUACCUUUUCUUUAGCAAGAAGAAUGGAAUGAACAUAAUGCCAAAAUAAUUAAAUAUAUAA,0.0123

# Set 2
# Target: CCNA1, cyclin fold, Cln2 fusion (human)
# Method: yeast growth competition, sequencing
# Sample: yeast
# Notes: weak parent motif
# Relative to: not given
# Reading: higher = stronger binding
# Starting sequence: SAMHD1 docking peptide (human); ASKSRVQLFKDDP; partner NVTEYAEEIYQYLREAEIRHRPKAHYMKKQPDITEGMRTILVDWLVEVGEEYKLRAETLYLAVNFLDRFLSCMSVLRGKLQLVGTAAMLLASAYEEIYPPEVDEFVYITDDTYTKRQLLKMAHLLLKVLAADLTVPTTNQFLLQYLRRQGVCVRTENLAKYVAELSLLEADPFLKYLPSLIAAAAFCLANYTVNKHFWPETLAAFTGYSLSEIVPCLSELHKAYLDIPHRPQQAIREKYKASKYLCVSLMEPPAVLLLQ
Substitution,normalised enrichment score
ASKKRVQLFKDDP [S4K],-0.0489
ASCSRVQLFKDDP [K3C],0.221
AFKSRVQLFKDDP [S2F],0.262
ASKSRPQLFKDDP [V6P],-0.215
ASKSRVQLFVDDP [K10V],0.153
ASKFRVQLFKDDP [S4F],0.202
ASDSRVQLFKDDP [K3D],-0.0276
ASKSRVALFKDDP [Q7A],-0.236
ASKTRVQLFKDDP [S4T],0.419
ASKSRNQLFKDDP [V6N],0.375
ASKSRVQWFKDDP [L8W],0.123
AWKSRVQLFKDDP [S2W],-0.0893
ASKGRVQLFKDDP [S4G],0.0313
ASKSRWQLFKDDP [V6W],0.0285
ASKSRVQLHKDDP [F9H],0.446
ASKSRSQLFKDDP [V6S],-0.351
ASVSRVQLFKDDP [K3V],0.287
ASKSRYQLFKDDP [V6Y],0.0842
ASQSRVQLFKDDP [K3Q],-0.144
ASKSGVQLFKDDP [R5G],0.119
ASMSRVQLFKDDP [K3M],0.0703
ADKSRVQLFKDDP [S2D],0.513
ASKSVVQLFKDDP [R5V],0.268
ASKSNVQLFKDDP [R5N],-0.346
ASKSRVQLFADDP [K10A],0.156

# Set 3
# Target: ABI1, truncated, D143A, DHFR fusion (Arabidopsis thaliana, UniProt P49597)
# Method: DHFR PCA, dose-response
# Sample: yeast
# Notes: Hill fit, mean, not affinity
# Added: (+)-ABA, dose series
# Reading: lower = more sensitive
# Starting sequence: PYL1, truncated, DHFR fusion (Arabidopsis thaliana, UniProt Q8VZS8); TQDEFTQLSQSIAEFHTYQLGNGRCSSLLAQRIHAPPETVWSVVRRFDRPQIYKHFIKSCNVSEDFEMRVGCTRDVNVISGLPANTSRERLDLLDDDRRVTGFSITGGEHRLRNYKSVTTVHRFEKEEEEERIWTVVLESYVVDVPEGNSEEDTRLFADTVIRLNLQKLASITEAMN
Substitution,ABA EC50 [µM]
D144T,19.1
T73R,8.15
T1W,1.34
S104Q,59
G21W,8.05
V143A,40.1
R88N,3.87
T86H,1.64
D159A,61.4
I133M,1.92
V118L,22
E67T,2.2
L20S,3.12
H34M,3.53
E38Y,55.7
F66S,4.81
R113H,1.8

# Set 4
# Target: Centromere-binding protein 1, full length, His-tagged (CBF1, Saccharomyces cerevisiae, UniProt P17106, residues 1-351)
# Chain of UniProt P17106 (whole entry, looked up): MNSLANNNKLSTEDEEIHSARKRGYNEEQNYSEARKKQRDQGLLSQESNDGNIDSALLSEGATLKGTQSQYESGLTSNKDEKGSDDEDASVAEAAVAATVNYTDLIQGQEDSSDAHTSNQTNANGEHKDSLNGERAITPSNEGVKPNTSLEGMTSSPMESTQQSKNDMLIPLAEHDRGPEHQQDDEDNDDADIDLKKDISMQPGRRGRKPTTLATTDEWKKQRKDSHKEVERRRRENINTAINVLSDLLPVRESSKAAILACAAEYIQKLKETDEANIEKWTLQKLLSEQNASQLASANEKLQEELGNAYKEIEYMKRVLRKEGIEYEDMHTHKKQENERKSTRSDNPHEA
# Method: competition protein-binding microarray
# Molecule type: double-stranded DNA, one strand shown
# Sample: in vitro
# Concentration: 2 µM
# Notes: whole 60-bp probe, lowest competitor level
# Added: Pho4 competitor, 0.05 µM
# Reading: higher = stronger binding
# Constant ends, left off below: … GTCTTGATTCGCTTGACGCTGCTG
Sequence,fluorescence intensity
ACCAAATGTGGAAATGGCATGACAACCCCCCAGACA,124 a.u.
GTCTTGTCTCATTTTCACGTGTTGTTCCCCACTTCA,697 a.u.
TTAAGTGGGCTTACCCACGCTTTCGGTGCCTATGGT,49.2 a.u.
TGCGCAACAACTTGTTTCGTGGGTGTATGTCTAGAA,75.9 a.u.
CTTCTGTAAATTTGTTCGGTGGGTGGACGCGCCCCG,81.2 a.u.
CTTTCCCGATCTTTTCACGTGACGTTAGCACATTTG,3880 a.u.
CCAGAACGCCCAGAAAACGTGAAGGACACTACATAC,114 a.u.
CACTACATAACCCGTCACGTTTCAAAAACGAGCCAA,555 a.u.
CTAACGAAGGTTTGTTGAGTGGGTGACAAGCCAAGT,77.6 a.u.
CTAACGAAGGTTTTTCACGTGAGGTACAAGCCAAGT,848 a.u.
CTTCTCTAGGTTATGTTCATGCCCTTGCTCATCAAC,65.4 a.u.
ATACCAGAGTATAGTGACGTGATGGGGTTGCATTAG,87.4 a.u.
CATACCCAACCTTGTCACGAAACTTAAGATATTTGT,95.4 a.u.
GTCTTGTCTCATTGTCACTAGACTTTCCCCACTTCA,94.7 a.u.
ATCCTCTTCTTCGTCCACGTGCCGACTTTTGTTTCT,1940 a.u.
GAACGTTAGTACTTGACCGTGCAATAATGGGAAGCA,75.2 a.u.
CATACCCAACCTTTTCACGTGTAGTAAGATATTTGT,730 a.u.
AAAGCGGTAATTTGGTATGTGGGTGCAGATATCTAT,71.4 a.u.
AAAGGCTCAGATCTGCATGTGTTGTATAACACTGGC,82.2 a.u.
AACGGAGACAGAAAGCACGTTGCCGCTTTGAGAACC,114 a.u.
GGAGCAGGACTCTGCCGCGTGTCCTTCCCGGCTCCG,69.6 a.u.
CGTCCTAGTGATTGCGTAGTGGGTGCCATGAGGAAG,82.6 a.u.
CTATCCCTAGATTTCGTCGTGCCGAGACCCAAATAG,67.5 a.u.
CGGGGTTAAGTTTGAAAGGTGGGTGGCTTGCAGCAG,54.2 a.u.

# Set 5
# Target: RING finger protein unkempt homolog, zinc fingers 1-6, GST-SBP tag (UNK, Homo sapiens, UniProt Q9C0B0, residues 30-357)
# Chain of UniProt Q9C0B0 (30-357, looked up): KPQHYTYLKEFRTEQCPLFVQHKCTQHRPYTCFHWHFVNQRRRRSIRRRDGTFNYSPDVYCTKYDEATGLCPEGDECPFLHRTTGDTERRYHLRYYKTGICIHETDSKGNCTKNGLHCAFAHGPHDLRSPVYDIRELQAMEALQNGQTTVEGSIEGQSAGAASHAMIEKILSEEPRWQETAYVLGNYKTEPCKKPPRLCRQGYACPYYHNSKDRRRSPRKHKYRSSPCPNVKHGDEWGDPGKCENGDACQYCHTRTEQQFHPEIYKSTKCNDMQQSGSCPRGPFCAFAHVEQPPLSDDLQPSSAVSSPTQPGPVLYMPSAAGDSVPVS
# Method: RNA Bind-n-Seq
# Molecule type: RNA
# Sample: in vitro
# Concentration: not given
# Notes: RNA with constant flanks, human-mouse chimeric sites, ends assumed
# Relative to: input RNA pool
# Reading: higher = stronger binding
# Constant ends, left off below: GGGAGUUCUACAGUCCGACGAUC … CAACAGAGGAUUGAGCAUCA
Sequence,bound/input enrichment [ratio]
CUGGCCUGGCCCUCCCCAGGGGCCUCCUUUCGUAUAGUCACUGCUUCUGCAUCAGAUACUUUCAGCUGCAACUCCCUGCAGGGUGGGGCACCCAUUUGAGGCAGGGUGUUUUGGUACCCU,0.225
ACACAAUAUGAGACCAACAGCUUGGACUUCAAAGUUGGGGCAGAUGGGACAGUCUUCGCCACCCGGGAGCUGCAGGUCCCCUCCGAGCAGGUGGCGUUCACGGUGACUGCGCGGGAAAGC,0.255
GCUCUUGGGAAUGUAAUCAGCGCCUUGGGGGACAAGAGCAAGAGAGCCACCCAUGUCCCCUAUAGAGACUCUAAGCUGACAAGACUCUUGCAGGAUUCCCUUGGGGGUAAUAGCCAAACC,0.172
UGUAGUUUCGCGGUUCAGGCUUUGUGUGUAGUUCACUUACGGUAUUAAAUUAUUAUUCUGCUUAGCUUAUAAUAAGGAUAAUUGCAUUUAAAGAGGUGAUCACUGAAUACUCUGAAACUU,0.795
AUCAAAUACUUUGGGGAUAUUAUUAGCGUGGGACAGAGACUGUUGCAAGGAGCUCGGAUCUUAGGGAUUCCAGUUAUCAUAACGGAACAAUACCCCAAAGGACUUGGGAGCACGGUUCAA,0.388
UACUGCUGCUUUCAACUUAAAUCACUGAGGCAUCUCUACUGUUCUGUGAGCAUCAGGACUGUAGCGCUGUGUCACCACAUGAGAGUUCAGAAGCAGCCUUUCUGUGGAGGGUGGGAAUGA,0.11
UCUUAACUUAUUCAUUUAACUUAUUUUUAUAGCUAGAUAAAUAUUGUUAGUCUUAGAGAGUAGUUCACAUUUUUUGAGAAGCAUGCCCUCCCUGUCCAUUUGUCUUACAAUAACACUCAG,6.9
GGAAGUACAAUGAUGGAGAUUGAUGGUGACAAAGGCAAGCAGGGCGGGCCCACCUACUACAUAGACACUAAUGCUCUCCGCGUGCCCAGGGAGAACAUGGAGGCCAUUUCACCUCUAAAG,0.768
AUAAAGGCCAUGUUGAGUGGUCCAGGUCAGUUUGCUGAGAACGAAACCAACGAGGUCAAUUUUAGAGAGAUCCCCUCACAUGUGCUAUCAAAAGUGUGCAUGUAUUUUACCUACAAGGUC,0.133
ACAGUUAUAUUGUUGAGUUUCAUUUUCAUAUAUUCUUGUAGUGUCUGCUUGCCUGUGACUUCUGGUAAAAUAAAAUAAGCCUUUGAAAAUAUUUUAGAUUUAACAUUAACAUUUUCUAAA,5.32
GGGACUGAUUCAUCCCAAGGACAGGCCACCCCAUUUGAUGCCUGGACUGAUGACAGUAUGGAAGGGCCUAGUCAAAAUGUUGAAGCUGAGUCAAUUCAAGAUAAUGCGAGUAUGGAAGAG,0.463

# Excerpt of the above (set 4):
Sequence,fluorescence intensity
TGCGCAACAACTTGTTTCGTGGGTGTATGTCTAGAA,75.9 a.u.
CTTCTGTAAATTTGTTCGGTGGGTGGACGCGCCCCG,81.2 a.u.
CTTTCCCGATCTTTTCACGTGACGTTAGCACATTTG,3880 a.u.
CCAGAACGCCCAGAAAACGTGAAGGACACTACATAC,114 a.u.
CACTACATAACCCGTCACGTTTCAAAAACGAGCCAA,555 a.u.
CTAACGAAGGTTTGTTGAGTGGGTGACAAGCCAAGT,77.6 a.u.
CTAACGAAGGTTTTTCACGTGAGGTACAAGCCAAGT,848 a.u.
CTTCTCTAGGTTATGTTCATGCCCTTGCTCATCAAC,65.4 a.u.
ATACCAGAGTATAGTGACGTGATGGGGTTGCATTAG,87.4 a.u.
CATACCCAACCTTGTCACGAAACTTAAGATATTTGT,95.4 a.u.
GTCTTGTCTCATTGTCACTAGACTTTCCCCACTTCA,94.7 a.u.
ATCCTCTTCTTCGTCCACGTGCCGACTTTTGTTTCT,1940 a.u.
GAACGTTAGTACTTGACCGTGCAATAATGGGAAGCA,75.2 a.u.
CATACCCAACCTTTTCACGTGTAGTAAGATATTTGT,730 a.u.
AAAGCGGTAATTTGGTATGTGGGTGCAGATATCTAT,71.4 a.u.
